Assay results gathered from unrelated publications.
Each line is one published result; not all experiments were run side by side. Numbers after ± are the reported error.
Technique: steady-state kinetics
B1: SABP2 (Nicotiana tabacum, UniProt Q6RYA0); chain MKEGKHFVLVHGACHGGWSWYKLKPLLEAAGHKVTALDLAASGTDLRKIEELRTLYDYTLPLMELMESLSADEKVILVGHSLGGMNLGLAMEKYPQKIYAAVFLAAFMPDSVHNSSFVLEQYNERTPAENWLDTQFLPYGSPEEPLTSMFFGPKFLAHKLYQLCSPEDLALASSLVRPSSLFMEDLSKAKYFTDERFGSVKRVYIVCTEDKGIPEEFQRWQIDNIGVTEAIEIKGADHMAMLCEPQKLCASLLEIAHKYN
B2: enzyme (Homo sapiens, UniProt P50583); chain ALRACGLIIFRRCLIPKVDNNAIEFLLLQASDGIHHWTPPKGHVEPGEDDLETALRETQEEAGIEAGQLTIIEGFKRELNYVARNKPKTVIYWLAEVKDYDVEIRLSHEHQAYRWLGLEEACQLAQFKEMKAALQEGHQFLCSIEA
B3: enzyme (Burkholderia cenocepacia, UniProt B4E589); chain MTGYDRQSISDTTAKILLEVQAVHFNAEKPFIFTSGWASPVYIDCRKLISYPRVRRALMEMAETTITRDIGFEQIDAVAGGETAGIPFAAWIADRMMVPMQYVRKKPKGFGRNAQIEGHLEEGSRVLLVEDLTTDSRSKINFVNALRTAGATVNHCFVLFHYNIFKESVSVLKDIDVDLHALATWWDVLRVAKASGYFETKTLDEVEKFLHAPAEWSAAHGGATAPKE
B4: enzyme (Rhodospirillum rubrum, UniProt Q2RSU5); chain MSDSNDDRPFRPFQSQYRWPGVDLLAYKEEGSAPFRSVTRQVLFSGNGLTGELRYFEVGPGGHSTLERHQHAHGVMILKGRGHAMVGRAVSAVAPYDLVTIPGWSWHQFRAPADEALGFLCMVNAERDKPQLPTEADLAMLRADDAVAAFLDGLAG
B5: enzyme (Castanea crenata, UniProt P82859); chain MEEFLTVGLWGGEGGDRWSFVVNNGGIIGMEIVHANGIASITFKCGDEYGVLQHSRKFGGTGEGWKTDKISLNWPEEYLTSISGTVADLWQHIIIRSISFKTNKGTEYGPYGVVTGQPFSYSTEGGVIVGFHGRSGTLLDAIGAYVKIPQKKDNTLKMALPVPRGPGPWGGHGGMEWDDGVFPAIRELHLYVGDSVIHAIRVSYQSKDGEPLLSPKHGGEGGEPIDPIKLEVSKEFLIRIAGFYGPVEGSGSFKALRSITFYTNKAKYGPYGDEIGQAFTSSVAPGRVVGFHGRSGAYLDAIGVHMEYF
B6: enzyme (Cryptosporidium parvum, UniProt Q8IS93); chain MADLTFMYDLVVIGGGSGGMAAAKEAAKYGKKVALFDFVKPSTQGTKWGLGGTCVNVGCVPKKLMHYSALIASSIHHDAQMFGHKTSSSFEWGKLVETLRNHIRMLNFSYRTGLRVGNVEYINALAKLIDPHSVEYEDNGQKKTITSRYILLATGGRPSIPETVPGAIQYSITSDDIFFLSKSPGKTLVIGASYIGLETAGFLNELGFDTTVAMRSIPLRGFDRQCSEKIVEYMKATGTKFLVGVVPINIEKVNENIKVSFSDGSVEEFETVLYATGRNPDVKGLNLNAIGVEVSDSGKIIAPKDATSVPSIFAVGDIVEGRPELTPVAVKAGILLARRLFAGSNEFIDYDFVPTTVFTPIEYGHVGLSSEAAIAKYGEDDIEEYLSEFSTLEIAAAHREKPEHLRENEMDFALPLNCLAKLVVVKSQGEKVVGFHFVGPNAGEITQGFSLAVKLGATKKDFDDMIGIHPTDAEVFGILEVTKRSGESFVSSGGCGGGKCG
B7: SCO6712 Y229F (Streptomyces coelicolor, UniProt Q9XAL8); chain AKGITARTAPAGGEVRHLKMYAEKLADGQMGYGFEKGKASVPGPLIEVNEGDTLHIEFTNTMDVRASLHVHGLDYEISSDGTAMNKSDVEPGGTRTYTWRTHKPGRRDDGTWRPGSAGYWHYHDHVVGTEHGTGGIRNGLYGPVIVRRKGDVLPDATHTIVFNDMTINNRKPHTGPDFEATVGDRVEIVMITHGEFYHTFHMHGHRWADNRTGILTGPDDPSRVIDNKITGPADSFGFQIIAGEGVGAGAWMYHCHVQSHSDMGMVGLFLVKKPDGTIPGYEPHEHGGATAKSGESGEPTGGAAAHEHEH
B8: bjaI (Bradyrhizobium diazoefficiens, UniProt Q89VI2); chain MIHAISAVNRHLYEDVLEQHFRLRHDIFVEERHWETLRRPDGREVDSYDDEDTVYLLALEGRRVVGGHRLYPTTKPSMMSEVFPHLAAVRGCPSDPLIWEWSRYFVVRDRRDGALNLQLMAAVQEFCLDQGIAQVSAIMETWWLPRFHEAGFVVTPLGLPALVENAWTMAATVDIRRQTLDVLHDRIGMPSIVQQDGPRLDAVARANLCGLAAAQRKSA
B9: enzyme (Methylibium petroleiphilum, UniProt A2SL37); chain PIIQMNLLEGRTVEQKRNAVAAITEAVVRTLDVRPDQVRILINELGVEHFSVAGQTAAMRQAAAANAKDL
B10: PYCR2 R119C (Homo sapiens, UniProt Q96C36); chain MSVGFIGAGQLAYALARGFTAAGILSAHKIIASSPEMNLPTVSALRKMGVNLTRSNKETVKHSDVLFLAVKPHIIPFILDEIGADVQARHIVVSCAAGVTISSVEKKLMAFQPAPKVICCMTNTPVVVQEGATVYATGTHALVEDGQLLEQLMSSVGFCTEVEEDLIDAVTGLSGSGPAYAFMALDALADGGVKMGLPRRLAIQLGAQALLGAAKMLLDSEQHPCQLKDNVCSPGGATIHALHFLESGGFRSLLINAVEASCIRTRELQSMADQEKISPAALKKTLLDRVKLESPTVSTLTPSSPGKLLTRSLALGGKKD
B11: ADSL R303C (Homo sapiens, UniProt P30566); chain MAAGGDHGSPDSYRSPLASRYASPEMCFVFSDRYKFRTWRQLWLWLAEAEQTLGLPITDEQIQEMKSNLENIDFKMAAEEEKRLRHDVMAHVHTFGHCCPKAAGIIHLGATSCYVGDNTDLIILRNALDLLLPKLARVISRLADFAKERASLPTLGFTHFQPAQLTTVGKRCCLWIQDLCMDLQNLKRVRDDLRFRGVKGTTGTQASFLQLFEGDDHKVEQLDKMVTEKAGFKRAFIITGQTYTRKVDIEVLSVLASLGASVHKICTDIRLLANLKEMEEPFEKQQIGSSAMPYKRNPMRSECCCSLARHLMTLVMDPLQTASVQWFERTLDDSANRRICLAEAFLTADTILNTLQNISEGLVVYPKVIERRIRQELPFMATENIIMAMVKAGGSRQDCHEKIRVLSQQAASVVKQEGGDNDLIERIQVDAYFSPIHSQLDHLLDPSSFTGRASQQVQRFLEEEVYPLLKPYESVMKVKAELCL
B12: enzyme (Pseudomonas poae, UniProt A0A2S9EJ63); chain MSTQHYDYIIVGGGSAGSVLANRLSAQADKRVLLIEAGADTPEHDTPTDILDGLQPWLPRLAGERYFWPGLNILRASEHGDIPREPQLYEQARILGGGSSVNMMVANRGLPRDYDEWARLGADGWDWQGVLPYFRKLERDLDFGHSHPEQHGQDGPIPIARVDSRHWGSFTRASAQALHTQGLNDIVDQNGRFEDGYFAPAVAIEHDQRVSSARAYLNAAVRARPNLSVWADTTVRQLTVKGQRVTGVQAVRDGRTVELAGDEVILAAGALQSPAFLLRAGIGPADQLRDLGIEVIADRPGVGRNLWDHSSIGLSASLHHPQVPSDEPGAAHLLAARVSSGVEPSVPGDLYLGIAPNAALGLASAVLWVNKPSSSGHLRLRSKDPADYPAVEFNLLSDRRDLERLRQGLRLLARVFAHPAVAAFSGPPRLSRFAQASNEGPLLSELLANDAQLERYLRTHVGGVWHASGTCRIGRADDPQAVVDHAGRVHGVQGLRVADASVFPSIPTANTNLPTLMIAEKIAEAILANA
B13: enzyme C458A (Methanosarcina mazei, UniProt Q8PVB1); chain MSEQRSVPLREHLLALKPCRHGGLIQETSETYGIPENEILDFSANFNPLGSPFDYPENGLNFEDIIKKSCGKLLEYPDNRYVEFREAAARFVGLGVTPQSIVPGNGSTEIVRLVVESVIEKGDKVLLPWPTFGEYEMQCRITGAEPVCPSQEEVNTLPDEVLEEAKILFICNPNNPTGKLRTREELKVLAERCREHKTLLYVDEAFIELSDPSQSVADLPAENNYVFVMRSLTKDFAIPGIRMGFGIAPPAMADILNTARLSWNLGAIANNTGIALLNIEGGIDSPYLKKAREMILKEGETLKAKIDRIRGFEAGEVNVNFILVDVSKFMLNSSELTARLAARGVLVRDCVSFHGLGKNYIRVAVRTEKENDRLIAAIGDVITEWGREQAKNELQHVIEKASEEGIGGRKTCEYYPCHFEGQNCTFCFCPFYPCENEKTGGKWIQSSRGGRVWSCVDAHLVHKKEIAQKILDCLMHEGDTDELVKVAWKEVMEPIL
Sequence of UniProt P62620 (whole entry, looked up): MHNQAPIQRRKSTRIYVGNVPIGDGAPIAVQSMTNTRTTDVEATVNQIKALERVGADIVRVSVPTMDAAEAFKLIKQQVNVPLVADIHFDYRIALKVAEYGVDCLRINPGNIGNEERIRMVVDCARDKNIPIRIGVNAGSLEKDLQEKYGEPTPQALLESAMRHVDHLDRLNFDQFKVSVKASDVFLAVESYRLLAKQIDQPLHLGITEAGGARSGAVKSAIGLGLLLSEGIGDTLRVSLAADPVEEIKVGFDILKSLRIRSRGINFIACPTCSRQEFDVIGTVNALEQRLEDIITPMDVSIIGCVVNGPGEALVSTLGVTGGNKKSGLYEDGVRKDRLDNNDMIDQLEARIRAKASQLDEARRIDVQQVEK

`B1 (SABP2)` gave a kcat of 2.23 ± 0.0667 s⁻¹ (CC(=O)Oc1ccc([N+](=O)[O-])cc1; pH 7.2, 22 °C).
With `B2 (enzyme)` the kcat was 0.47 ± 0.2 s⁻¹ (Nc1ncnc2c1ncn2[C@@H]1O[C@H](COP(=O)(O)OP(=O)(O)OP(=O)(O)OP(=O)(O)OP(=O)(O)OC[C@H]2O[C@@H](n3cnc4c(N)ncnc43)[C@H](O)[C@@H]2O)[C@@H](O)[C@H]1O; with: Mg2+).
With `enzyme K123A (Homo sapiens, UniProt Q08623)` the kcat was 0.128 s⁻¹ (O=c1[nH]cc([C@@H]2O[C@H](COP(=O)(O)O)[C@@H](O)[C@H]2O)c(=O)[nH]1; pH 7, 25 °C).
For `B3 (enzyme)`, the kcat was 0.12 ± 0.014 s⁻¹ (O=C(O)c1cc(=O)[nH]c(=O)[nH]1; pH 7, room temperature, with: PRPP 5 mM).
`B4 (enzyme)` gave a kcat of 7.8 s⁻¹ (CSCC(=O)[C@@H](O)[C@H](O)COP(=O)(O)O; with: DTT).
With `B5 (enzyme)` the kcat was 0.00368 s⁻¹ (CCCCCCCCCCCCCCCC(=O)Oc1ccc([N+](=O)[O-])cc1; pH 8, 35 °C).
With `B6 (enzyme)` the kcat was 22.4 ± 0.428 s⁻¹ (O=C(O)c1cc(SSc2ccc([N+](=O)[O-])c(C(=O)O)c2)ccc1[N+](=O)[O-]; pH 7.4, with: NADPH 150 µM).
`gdh E198G/N192S/N97F (Bacillus subtilis)` has a kcat of 20.4 ± 0.651 s⁻¹ (NC(=O)c1ccc[n+]([C@@H]2O[C@H](COP(=O)(O)OP(=O)(O)OC[C@H]3O[C@@H](n4cnc5c(N)ncnc54)[C@H](O)[C@@H]3O)[C@@H](O)[C@H]2O)c1; pH 7, 50 °C).
For `B7 (SCO6712 Y229F)`, the kcat was 2.13 ± 0.06 s⁻¹ (CCn1c(=NN=c2sc3cc(S(=O)(=O)O)ccc3n2CC)sc2cc(S(=O)(=O)O)ccc21; pH 7, 37 °C, NaCl 150 mM, with: O2 cosubstrate).
With `enzyme N248Y/Q325R/R246H/R328K/S219F (Arabidopsis thaliana, UniProt O24495)` the kcat was 16 ± 1 s⁻¹ (C[C@@H](O)C(=O)SC[C@H](NC(=O)CC[C@H](N)C(=O)O)C(=O)NCC(=O)O; pH 7.2, 25 °C).
With `enzyme (Pseudanabaena biceps, UniProt L8N0N6)` the kcat was 3.02 ± 0.01 s⁻¹ (NC(=O)c1ccc[n+]([C@@H]2O[C@H](COP(=O)(O)O)[C@@H](O)[C@H]2O)c1; pH 7.4, 30 °C, apparent, cofactor varied).
`enzyme (Sargassum horneri, UniProt A0A097IUG6)` gave a kcat of 41.4 ± 1.2 s⁻¹ (C=C(OP(=O)(O)O)C(=O)O; pH 6.5, 25 °C, with: 2 mM ADP).
For `B8 (bjaI)`, the kcat was 0.045 ± 0.00333 s⁻¹ (CC(C)CC(=O)SCCNC(=O)CCNC(=O)[C@H](O)C(C)(C)COP(=O)(O)OP(=O)(O)OC[C@H]1O[C@@H](n2cnc3c(N)ncnc32)[C@H](O)[C@@H]1OP(=O)(O)O; pH 7.3, with: 30 µM DCPIP, 331 µM SAM).
The kcat of `B9 (enzyme)` is reported as 3.4 ± 0.1 s⁻¹ (C/C(=C\C=C(/O)C(=O)O)C(=O)O; pH 7.3, 24 °C).
`B10 (PYCR2 R119C)` gave a kcat of 0.08 ± 0.01 s⁻¹ (O=C(O)[C@@H]1CCC=N1; pH 7.5, 37 °C, apparent, with: NADH 500 µM).
The kcat of `ispG (Escherichia coli, UniProt P62620)` is reported as 0.395 s⁻¹ (C[C@@]1(CO)OP(=O)(O)OP(=O)(O)OC[C@H]1O).
`B11 (ADSL R303C)` gave a kcat of 2.36 ± 0.04 s⁻¹ (O=C(O)C[C@H](Nc1ncnc2c1ncn2[C@@H]1O[C@H](COP(=O)(O)O)[C@@H](O)[C@H]1O)C(=O)O; pH 7.4, 25 °C).
With `enzyme (Plasmodium falciparum, UniProt C0H484)` the kcat was 0.39 ± 0.01 s⁻¹ (O=P(O)(O)OP(=O)(O)OP(=O)(O)OC[C@H]1O[C@@H](n2cnc3c(O)ncnc32)[C@H](O)[C@@H]1O; with: Mn2+).
With `enzyme (Oryza sativa, UniProt Q6ZGQ4)` the kcat was 0.19 ± 0.02 s⁻¹ (O=[N+]([O-])c1ccc(O[C@@H]2OC[C@H](O)[C@H](O)[C@H]2O)cc1; pH 4, 40 °C, apparent).
`B12 (enzyme)` has a kcat of 0.00855 s⁻¹ (O=Cc1ccc(CO)o1; pH 8, 30 °C, with: 2 µM FAD).
`B13 (enzyme C458A)` has a kcat of 0.22 ± 0.005 s⁻¹ (Nc1ncnc2c1ncn2[C@@H]1O[C@H](COP(=O)(O)OP(=O)(O)OP(=O)(O)O)[C@@H](O)[C@H]1O; pH 8.5, 25 °C, apparent, anoxic, with: L-Thr 10 mM).

Some of these lines once more:
With `B2 (enzyme)` the kcat was 0.47 ± 0.2 s⁻¹ (Nc1ncnc2c1ncn2[C@@H]1O[C@H](COP(=O)(O)OP(=O)(O)OP(=O)(O)OP(=O)(O)OP(=O)(O)OC[C@H]2O[C@@H](n3cnc4c(N)ncnc43)[C@H](O)[C@@H]2O)[C@@H](O)[C@H]1O; with: Mg2+).
